Experimental data from different studies.
Compare with care: the assays were run in different laboratories. ± gives the spread as reported.
UniProt O00444, sequence (whole entry, looked up): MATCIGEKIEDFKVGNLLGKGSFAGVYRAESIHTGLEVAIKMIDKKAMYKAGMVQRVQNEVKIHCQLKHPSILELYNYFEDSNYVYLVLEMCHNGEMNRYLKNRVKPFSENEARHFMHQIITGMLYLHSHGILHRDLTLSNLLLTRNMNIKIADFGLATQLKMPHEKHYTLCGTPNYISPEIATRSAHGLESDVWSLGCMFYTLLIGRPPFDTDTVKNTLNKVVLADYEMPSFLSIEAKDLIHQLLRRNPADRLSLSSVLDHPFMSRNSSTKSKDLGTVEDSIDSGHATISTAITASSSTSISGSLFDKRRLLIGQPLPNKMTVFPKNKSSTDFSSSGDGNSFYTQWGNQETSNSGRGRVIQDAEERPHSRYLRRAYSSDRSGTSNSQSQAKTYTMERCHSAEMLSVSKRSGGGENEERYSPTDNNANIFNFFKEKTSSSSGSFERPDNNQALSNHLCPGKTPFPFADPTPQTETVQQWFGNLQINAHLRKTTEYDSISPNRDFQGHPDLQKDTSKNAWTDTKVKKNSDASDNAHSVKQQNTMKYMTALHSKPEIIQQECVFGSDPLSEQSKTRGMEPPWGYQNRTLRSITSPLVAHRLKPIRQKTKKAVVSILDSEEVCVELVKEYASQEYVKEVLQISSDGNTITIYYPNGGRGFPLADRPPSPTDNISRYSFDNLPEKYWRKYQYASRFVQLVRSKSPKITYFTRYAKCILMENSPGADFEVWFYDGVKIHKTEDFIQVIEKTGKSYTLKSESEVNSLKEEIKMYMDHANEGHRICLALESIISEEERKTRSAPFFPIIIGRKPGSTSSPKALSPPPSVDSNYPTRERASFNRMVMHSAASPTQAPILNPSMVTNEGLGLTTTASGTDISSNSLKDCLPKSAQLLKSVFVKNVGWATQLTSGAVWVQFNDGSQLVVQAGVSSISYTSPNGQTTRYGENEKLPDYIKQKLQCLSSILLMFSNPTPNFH

Structure (SMILES)	tested on	test	test system	setting	scale	quantity	value
COc1ccc([N+](=O)[O-])cc1NC(=O)CCC(=O)[O][Zn][O]C(=O)CCC(=O)Nc1cc([N+](=O)[O-])ccc1OC.c1ccncc1		antioxidant activity		62.5 µg/mL		DPPH scavenging	65 ± 1%
N=C(N)NCCC[C@@H]1NC(=O)[C@H](CCCCNC(=O)CC[C@H](NC(=O)CCOCCOCCOCCOCCNC(=O)CN2CCN(CC(=O)O)CCN(CC(=O)O)CCN(CC(=O)O)CC2)C(=O)NCCCC[C@@H]2NC(=O)[C@@H](Cc3ccccc3)NC(=O)[C@H](CC(=O)O)NC(=O)CNC(=O)[C@H](CCCNC(=N)N)NC2=O)NC(=O)[C@@H](Cc2ccccc2)NC(=O)[C@H](CC(=O)O)NC(=O)CNC1=O [indium-111 labelled]			female athymic nude mice, spleen	intravenous, 3 µCi, 1 h, U-87 MG glioma xenograft		tissue uptake	1.65 ± 0.13 %ID/g
Cc1cc(O)c(I)c(C)c1C[C@H](N)C(=O)N[C@H](C)C(=O)N[C@@H](Cc1ccccc1)C(=O)N[C@@H](Cc1ccccc1)C(N)=O		analgesia	CD-1 mouse, placebo pellet	intracerebroventricular, 72 h		ED50	0.11 ± 0.06 µg
NCCCC[C@H](NC(=O)CNC(=O)CNC(=O)[C@H](CCCCN)NC(=O)CNC(=O)CNC(=O)CNC(=O)[C@H](CCCCN)NC(=O)CNC(=O)CNC(=O)[C@H](CCCCN)NC(=O)CNC(=O)CNC(=O)CNC(=O)[C@H](CCCCN)NC(=O)CNC(=O)CNC(=O)[C@H](CCCCN)NC(=O)CNC(=O)CNC(=O)CNC(=O)[C@H](CCCCN)NC(=O)CNC(=O)CNC(=O)[C@H](CCCCN)NC(=O)[C@H](CO)NC(=O)[C@H](Cc1ccc(O)cc1)NC(=O)CNC(=O)CNC(=O)CN)C(=O)NCC(=O)O			human IAPP fibrils	1 h, room temperature	baseline: 1 M NaCl over PBS	binding ratio	0.12
CC(C)C[C@@H]1NC(=O)[C@H](C(C)C)NC(=O)[C@H](CO)NC(=O)CNC(=O)CNC(=O)[C@H](CCCNC(=N)N)NC(=O)[C@@H]2CCCN2C(=O)[C@@H](NC(=O)CC[C@H](NC(=O)c2ccc(N(C)Cc3cnc4nc(N)nc(N)c4n3)cc2)C(=O)O)C(C)(C)SSC[C@@H](C(=O)O)NC(=O)CNC(=O)[C@H]([C@@H](C)O)NC(=O)[C@H](C(C)C)NC1=O			rat adjuvant arthritis	intravenous, 5 mg/kg once daily, day 14	baseline: arthritis vehicle	liver weight increase suppression	78%
CSCC[C@H](NC(=O)CNC(=O)[C@H](CC(=O)O)NC(=O)[C@@H](NC(=O)[C@@H](NC(=O)[C@@H](NC(=O)CNC(=O)[C@H](CCC(N)=O)NC(=O)[C@H](CCSC)NC(=O)[C@H](CC(=O)O)NC(=O)[C@H](C)NC(=O)[C@H](C)NC(=O)[C@@H](NC(=O)[C@H](CO)NC(=O)[C@@H](N)CC(C)C)[C@@H](C)O)C(C)C)C(C)C)[C@@H](C)O)C(=O)N[C@@H](C)C(=O)N[C@@H](CO)C(=O)NCC(=O)N[C@@H](CC(C)C)C(=O)N[C@@H](CC(=O)O)C(=O)N[C@@H](CCCCN)C(=O)N[C@@H](CC(=O)O)C(=O)N[C@@H](Cc1ccc(O)cc1)C(=O)N[C@@H](CC(C)C)C(=O)N[C@@H](CCCCN)C(=O)N1CCC[C@H]1C(=O)N[C@@H](CC(=O)O)C(=O)N[C@@H](CC(=O)O)C(=O)O			p53-positive advanced solid tumour patients	dose not given		median overall survival	28 weeks
C[C@@H](NC(=O)[C@@H](CCC(N)=O)NC(=O)[C@@H](C)NC(=O)[C@@H](CCCCN)NC(=O)[C@@H](CCC(N)=O)NC(=O)[C@@H](C)NC(=O)[C@@H](CCCCN)NC(=O)[C@@H](CCC(N)=O)NC(=O)[C@@H](C)NC(=O)[C@@H](CCC(N)=O)NC(=O)[C@@H](CCCCN)NC(=O)[C@@H](C)NC(=O)[C@@H](CCC(N)=O)NC(=O)[C@@H](CCCCN)NC(=O)[C@@H](C)NC(=O)[C@@H](CCC(N)=O)NC(=O)[C@@H](C)NC(=O)[C@@H](CCCCN)NC(=O)[C@@H](CCC(N)=O)NC(=O)[C@@H](C)NC(=O)[C@@H](CCCCN)NC(=O)[C@@H](CO)NC(=O)[C@@H](Cc1ccc(O)cc1)NC(=O)CNC(=O)CNC(=O)CN)C(=O)N[C@H](CCCCN)C(=O)N[C@H](CCC(N)=O)C(=O)N[C@H](C)C(=O)N[C@H](CCCCN)C(=O)N[C@H](CCC(N)=O)C(=O)O			Aβ(1-40) fibrils	1 h, room temperature	baseline: 1 M NaCl over PBS	binding ratio	0.29
Cc1ccc(/C=C/C(=O)O)cc1-c1cc2c(cc1C)C(C)(C)CCC2(C)C		RNA sequencing, measured: Abca1 mRNA	rat, brain	dose not given, 24 h, single dose	baseline: vehicle	log2 fold change	0.19
COC(=O)C1=CO[C@@H](OC(C)=O)[C@@H]2C(Cn3cc(CCN4C(=O)c5ccccc5C4=O)nn3)=CC[C@H]12	SK-N-SH	neuroprotection, MTT		0.075 µM, 24 h, with: 250 µM H2O2		viability	53.2 ± 2.5%
CC(C)[C@H](N)C(=O)N[C@@H](Cc1ccc(O)cc1)C(=O)N[C@@H](CCCCN)C(=O)N[C@H](C(=O)N[C@@H](CCCCN)C(=O)N[C@H](C(=O)N[C@@H](CCCCN)C(=O)N[C@H](C(=O)N[C@@H](CCCCN)C(=O)N[C@H](C(=O)N[C@@H](CCCCN)C(=O)N[C@H](C(=O)N[C@@H](CCCCN)C(=O)N[C@H](C(=O)N[C@@H](CCCCN)C(=O)N[C@H](C(=O)N[C@@H](CCCCN)C(=O)N[C@H](C(=O)O)[C@@H](C)O)C(C)C)[C@@H](C)O)C(C)C)[C@@H](C)O)C(C)C)[C@@H](C)O)C(C)C		circular dichroism, measured: enoxaparin concentration	PBS	0.05 mg/mL		transition midpoint	~7 µM
CCN(CCCCOc1ccc(CCC(=O)N2CCC(Cc3ccccc3)CC2)cc1OC)Cc1ccccc1		decrease, ELISA, measured: IL-1β	APP/PS1 transgenic mice, cerebral cortex	dose not given		protein level	decreased
O=C(O)/C=C/c1ccc(O)cc1				1000 µg/mL		DPPH radical scavenging	85.8 ± 0.3%
C[C@H](NC(=O)[C@H](CCC(N)=O)NC(=O)[C@H](CCCCN)NC(=O)[C@H](C)NC(=O)[C@@H]1CCCN1C(=O)[C@H](C)NC(=O)[C@H](CCCCN)NC(=O)[C@H](CCC(N)=O)NC(=O)[C@H](C)NC(=O)[C@H](CCCCN)NC(=O)[C@H](CCC(N)=O)NC(=O)[C@@H]1CCCN1C(=O)[C@H](CCC(N)=O)NC(=O)[C@H](CCCCN)NC(=O)[C@H](C)NC(=O)[C@H](CCC(N)=O)NC(=O)[C@H](CCCCN)NC(=O)[C@H](C)NC(=O)[C@@H]1CCCN1C(=O)[C@H](C)NC(=O)[C@H](CCCCN)NC(=O)[C@H](CCC(N)=O)NC(=O)[C@H](C)NC(=O)[C@H](CCCCN)NC(=O)[C@H](CO)NC(=O)[C@H](Cc1ccc(O)cc1)NC(=O)CNC(=O)CNC(=O)CN)C(=O)N[C@@H](CCCCN)C(=O)N[C@@H](CCC(N)=O)C(=O)O			Aβ(1-40) fibrils	1 h, room temperature	baseline: 1 M NaCl over PBS	binding ratio	0.01
CCc1nnc(-c2c(OC)cc(-c3cnc4cc(-c5cnn(C)c5)ccn34)cc2OC)o1		immunohistochemistry, measured: sclerostin	male C57BL/6J mice, tibia	oral gavage, dose not given, 3 weeks		protein level	decreased
CCOP(=O)(OCC)OCCCCOC(=O)CC1=C(C)C(=Cc2ccc([S+](C)[O-])cc2)c2ccc(F)cc21 (stereo not shown)		immunoblotting, measured: phospho-EGFR	nude mice, orthotopic A549 tumour, tumour	inhalation, dose not given	baseline: vehicle	protein level reduction	58%
O=C(O)CCn1c(=O)oc2cc(Cl)c(Cl)cc21			rat, plasma	dose not given		total tryptophan level	70 µM
CSCC[C@H](NC(=O)[C@H](CC(C)C)NC(=O)[C@H](Cc1c[nH]cn1)NC(=O)CNC(=O)[C@@H](NC(=O)[C@H](C)NC(=O)[C@H](Cc1c[nH]c2ccccc12)NC(=O)[C@H](CCC(N)=O)NC(=O)CCCCCNC(=O)CNC(=O)CNC(=O)CNC(=O)CSC(C)=O)C(C)C)C(N)=O [technetium-99m labelled]			healthy Swiss mouse, stomach, contents removed	intravenous, 18.5 MBq, 240 min		tissue uptake	0.67 ± 0.05 %ID/g
CC[C@H](C)[C@H](NC(=O)[C@H](CCCCN)NC(=O)CNC(=O)[C@H](CC(C)C)NC(=O)[C@H](Cc1ccccc1)NC(=O)[C@H](CCCCN)NC(=O)[C@H](CO)NC(=O)[C@H](Cc1ccccc1)NC(=O)[C@H](Cc1c[nH]c2ccccc12)NC(=O)[C@H](CCC(N)=O)NC(=O)[C@@H](NC(=O)[C@H](Cc1ccccc1)NC(=O)CCCCCNC(=O)CN1CCN(CC(=O)O)CCN(CC(=O)O)CCN(CC(=O)O)CC1)C(C)C)C(=O)N[C@@H](CCC(=O)O)C(=O)N1CCC[C@H]1C(=O)N[C@@H](CC(=O)O)C(=O)N[C@H](C(=O)N[C@@H](CO)C(=O)N[C@@H](CCC(N)=O)C(=O)N[C@H](C(=O)N[C@@H](CCC(N)=O)C(=O)N[C@@H](CC(=O)O)C(=O)N1CCC[C@H]1C(=O)N[C@@H](CC(N)=O)C(=O)N[C@@H](CC(=O)O)C(=O)N[C@@H](CCC(N)=O)C(=O)N[C@@H](Cc1ccc(O)cc1)C(=O)N[C@@H](CCC(=O)O)C(=O)N1CCC[C@H]1C(=O)N[C@@H](Cc1ccccc1)C(=O)O)C(C)C)C(C)C [copper-64 labelled]		PET/CT	mice, LPS lung injury	dose not given, 4 d, outcome: increased, with: LPS 0.1 or 3 mg/kg intratracheal	baseline: vehicle	lung uptake	increased
CC(=O)NC(Cc1ccc(Br)c(Cl)c1)C(=O)N[C@@H](C)C(=O)N1CCC[C@H]1C(=O)N1CCC[C@H]1C(=O)N[C@@H](CCC(=O)O)C(=O)N[C@@H](Cc1c[nH]cn1)C(=O)N[C@@H](CO)C(=O)N[C@H](C(=O)N[C@@H](C)C(N)=O)[C@@H](C)OP(=O)(O)O (stereo partly shown)	Serine/threonine-protein kinase PLK4 (PLK4, Homo sapiens, UniProt O00444)			10 µM		inhibition	3.18 ± 0.19%
N=C(N)NCCC[C@@H]1NC(=O)[C@H](CCCCNC(=O)CNC(=O)CNC(=O)CNC(=O)CC[C@H](NC(=O)CCOCCOCCOCCOCCNC(=O)CC[C@H](NC(=O)CN2CCN(CC(=O)O)CCN(CC(=O)O)CCN(CC(=O)O)CC2)C(=O)NCCOCCOCCOCCOCCC(=O)N[C@@H](CCC(=O)NCC(=O)NCC(=O)NCC(=O)NCCCC[C@@H]2NC(=O)[C@@H](Cc3ccccc3)NC(=O)[C@H](CC(=O)O)NC(=O)CNC(=O)[C@H](CCCNC(=N)N)NC2=O)C(=O)NCC(=O)NCC(=O)NCC(=O)NCCCC[C@@H]2NC(=O)[C@@H](Cc3ccccc3)NC(=O)[C@H](CC(=O)O)NC(=O)CNC(=O)[C@H](CCCNC(=N)N)NC2=O)C(=O)NCC(=O)NCC(=O)NCC(=O)NCCCC[C@@H]2NC(=O)[C@@H](Cc3ccccc3)NC(=O)[C@H](CC(=O)O)NC(=O)CNC(=O)[C@H](CCCNC(=N)N)NC2=O)NC(=O)[C@@H](Cc2ccccc2)NC(=O)[C@H](CC(=O)O)NC(=O)CNC1=O [indium-111 labelled]			female athymic nude mice, liver	intravenous, 3 µCi, 0.5 h, U-87 MG glioma xenograft		tissue uptake	3.62 ± 0.85 %ID/g
Cc1cc(Nc2nc(C[C@@]3(C(=O)O)CCN(Cc4cccc(Cl)c4F)[C@H](C)C3)cc(C)c2F)[nH]n1			mouse, IMR-32 neuroblastoma xenograft	oral, 2.5 mg/kg once daily		tumour growth inhibition	73%
CC[C@H](C)[C@H](NC(=O)[C@@H](NC(=O)[C@H](CC(=O)O)NC(C)=O)[C@@H](C)O)C(=O)N[C@@H](CCCNC(=N)N)C(=O)N[C@@H](CC(C)C)C(=O)N[C@@H](CC(C)C)C(=O)N[C@@H](Cc1ccccc1)C(=O)N[C@@H](CCC(N)=O)C(=O)N[C@@H](CC(C)C)C(=O)N[C@@H](CCSC)C(=O)N[C@@H](CCCNC(=N)N)C(=O)N1CCC[C@H]1C(=O)N1CCC[C@H]1C(=O)N[C@@H](CC(N)=O)C(=O)N[C@@H](CCSC)C(=O)N[C@H](C(=O)N1CCC[C@H]1C(=O)N[C@@H](C)C(=O)N[C@H](C(=O)N[C@@H](CC(N)=O)C(=O)N[C@@H](C)C(N)=O)C(C)C)[C@@H](C)O		measured: HA-52 tetramer	antigen-experienced tetramer+ CD4 T cells, healthy adults, HLA-DRB1*0101	dose not given		α4β7− CCR9+ cells	0%
